Assay results of several laboratories.
Every numbered part comes from another study and shows a few of its results, in no order.

Block 1
Target: RNA binding protein fox-1 homolog 2, RRM domain, GST-SBP tag (RBFOX2, Homo sapiens, UniProt O43251-10, residues 100-194)
Method: RNA Bind-n-Seq
Molecule type: RNA
Sample: in vitro
Concentration: 365 nM
Notes: natural RNA segment, single round, ends assumed
Reference: no-protein control
Reading: higher = stronger binding
Measurement: RBNS enrichment (R)
All sequences stand within: GGGAGUUCUACAGUCCGACGAUC … UGGAAUUCUCGGGUGCCAA
Target sequence (chain): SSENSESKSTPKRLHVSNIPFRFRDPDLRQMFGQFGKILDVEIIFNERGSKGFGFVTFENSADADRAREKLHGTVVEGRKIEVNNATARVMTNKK
CUGACAUUUAGUUGAUUAUUUUCUGCUACAGACCUGGUACACUCUGAUUUUAGAUAAAGUAAGCCUAGGUGUUGUCAGCAGGCAGGCUGGGGAGGCCAGUGUUGUGGGCU: 0.533
UCGCGCACAGGGCCCUCUCUCUUAGAGACUGCUCAGCUUUCGAGUCCAGGGAGGAGUCAGCGGGGAGUCAGCAGGUUCUCUCUCCUCCCUGGGAACUGGGGACCAACCCA: 0.277
UCUGCCUGCCUUUGUACCUCACUCACCUCCACCGCUCUCCAGCCCCUCUGAUGGCCACUCAGAGAAUACCAUAAUAAACAUGGCUGAGGACCCAGGAGAGUUCACGGGAG: 1.03
AAGAGGCAGAAUCCACCAAAGGCCUUGAACUACCCAUGCUGGGGAAAAGCAUAAAGGGCUGCCUAGUACCGCCCGUUCCCUCCACGCCAGGUGGAGACUACAAGGAGACU: 0.571
GGGAGUGUGAGUGAGUGUGCAUGUGUCUGAAGUUCACCAUUGCCCCCACCUGCACCUAGCAAGGAACAGGUGUUUGAUGUAUUUUGCUCAUGACUGCAGUAUGCAUGUAU: 17.3
AUAAACUGAAAUGCACAUAGCCAAGUCUUGACAUUACAAGAUUGUGUAUUUCUUAAAAUACAACUUUGUGUUGUACUUUGAAAUAAAUGAUGCUUUUUUUCAAAAGCCUU: 0.33
ACAAGAAGGCCCAGCUAGAAGAACAUAUCCCACACACAGGCAACAGCUUUUGGGAUAGCCCCCGCUCUAGUUGUUCAGAACCUACAUGAAAACCAGGCUGCAUGUUCUGC: 13.5
GUAUUUAAAUUAAGUCUUUGCUGCACUUAAAUUCAUACCCAGCCAAAAUGGAACUUUAGGCCAACCCCCAGCCUUCUGUUGCUAGGGUUGGUCUCCUACAGACACAGUGA: 0.204

Block 2
Target: Prothrombin, mature alpha-thrombin (F2, Homo sapiens, UniProt P00734)
Method: aptamer microarray, sandwich
Molecule type: DNA with 2'F-ANA
Sample: in vitro
Concentration: 200 nM
Notes: whole 15-mer aptamer, many near background
Added: Cy3 exosite-II aptamer, 400 nM
Reading: higher = stronger binding
Measurement: mean fluorescence intensity
Oligonucleotide: GGTTGGTGTGGTTGG
2'F-ANA at 2 3 5 6 9 10 12 13 14: 52.5 a.u.
2'F-ANA at 2 6 7 8 12: 754 a.u.
2'F-ANA at 4 7 8 9 10 14: 66.8 a.u.
2'F-ANA at 1 4 7 11 13 14 15: 124 a.u.
2'F-ANA at 1 2 9 10 12 13 14 15: 49.3 a.u.
2'F-ANA at 1 3 6 7 9 10 14 15: 60.4 a.u.
2'F-ANA at 2 4 6 7 8 9 10 12 15: 125 a.u.
2'F-ANA at 1 2 3 9 12 13 14: 80.8 a.u.
2'F-ANA at 3 4 6 7 9 10 11 12 13 14: 166 a.u.
2'F-ANA at 1 4 5 6 8 9 12 15: 105 a.u.
2'F-ANA at 3 5 6 9 10 12 13 14 15: 72.4 a.u.
2'F-ANA at 4 6 10 11 12 13: 81.1 a.u.
2'F-ANA at 2 4 5 6 9 13 14: 59.4 a.u.
2'F-ANA at 1 4 8 9 13: 80.6 a.u.
2'F-ANA at 1 4 5 7 8 14: 52.5 a.u.
2'F-ANA at 3 5 7 8 11 12 14 15: 69 a.u.

Block 3
Target: Sal-like protein 4, full length isoform B (SALL4, Homo sapiens, UniProt Q9UJQ4-2, residues 1-616)
Method: universal PBM
Molecule type: double-stranded DNA, one strand shown
Sample: in vitro
Concentration: not given
Notes: 8-mer, flanks averaged, mean of replicates
Reading: higher = stronger binding
Measurement: E-score
Target sequence (chain): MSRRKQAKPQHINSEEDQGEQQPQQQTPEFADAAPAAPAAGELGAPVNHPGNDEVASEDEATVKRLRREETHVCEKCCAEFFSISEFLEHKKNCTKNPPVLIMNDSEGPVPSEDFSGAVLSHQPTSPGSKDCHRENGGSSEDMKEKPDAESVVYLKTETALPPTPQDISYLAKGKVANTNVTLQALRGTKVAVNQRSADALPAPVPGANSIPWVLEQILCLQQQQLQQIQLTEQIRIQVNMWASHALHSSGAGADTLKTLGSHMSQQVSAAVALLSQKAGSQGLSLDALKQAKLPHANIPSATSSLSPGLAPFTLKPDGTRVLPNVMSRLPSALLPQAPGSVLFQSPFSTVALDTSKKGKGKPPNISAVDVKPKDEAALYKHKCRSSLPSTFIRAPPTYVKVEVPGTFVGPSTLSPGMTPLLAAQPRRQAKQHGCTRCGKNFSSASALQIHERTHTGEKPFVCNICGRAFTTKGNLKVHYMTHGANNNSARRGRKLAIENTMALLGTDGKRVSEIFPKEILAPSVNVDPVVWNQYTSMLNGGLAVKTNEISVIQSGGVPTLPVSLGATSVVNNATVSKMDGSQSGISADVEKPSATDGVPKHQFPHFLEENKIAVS
AACGGAGA: 0.0234
CGTTCTGA: -0.104
CACCTAGA: -0.118
GACGAAGA: 0.041
AATGGTAC: 0.165
GTGCAGAA: 0.0855
AACGCCAT: -0.00316
CCTCCATA: 0.0796
GGCGAAGA: -0.173
CCGTACGC: -0.203
GATAACCC: -0.144
AATGTGCG: 0.0666
ACGAGACC: -0.202
CGACGCAA: -0.306
CCAGCGCA: -0.289
GCATTCAA: 0.111
GACGTTAC: 0.0257
ATCGGGCC: -0.296
GGAGGGAC: -0.2
CCCAGTAG: -0.0587
AGACCTCA: -0.0551
CAAGCACA: -0.0649
ACTGCCCA: -0.195
AGTGAACA: 0.0659
GTGCCCGA: -0.194

Block 4
Target: Interferon regulatory factor 7, full length, phosphomimetic (IRF7, Homo sapiens, UniProt Q92985, residues 1-503, S471D/S472D/S475D/S476D/S477D/S483D/S484D/S487D)
Method: protein-binding microarray
Molecule type: double-stranded DNA, one strand shown
Sample: in vitro
Concentration: 2200 nM top
Notes: 60-bp whole probe
Added: salmon DNA 0.4 mg/ml
Reference: random background probes
Reading: higher = stronger binding
Measurement: fitted relative affinity
All sequences stand within: GCCTAGCAC … GTCTTGATTCGCTTGACGCTGCTG
Target sequence (chain): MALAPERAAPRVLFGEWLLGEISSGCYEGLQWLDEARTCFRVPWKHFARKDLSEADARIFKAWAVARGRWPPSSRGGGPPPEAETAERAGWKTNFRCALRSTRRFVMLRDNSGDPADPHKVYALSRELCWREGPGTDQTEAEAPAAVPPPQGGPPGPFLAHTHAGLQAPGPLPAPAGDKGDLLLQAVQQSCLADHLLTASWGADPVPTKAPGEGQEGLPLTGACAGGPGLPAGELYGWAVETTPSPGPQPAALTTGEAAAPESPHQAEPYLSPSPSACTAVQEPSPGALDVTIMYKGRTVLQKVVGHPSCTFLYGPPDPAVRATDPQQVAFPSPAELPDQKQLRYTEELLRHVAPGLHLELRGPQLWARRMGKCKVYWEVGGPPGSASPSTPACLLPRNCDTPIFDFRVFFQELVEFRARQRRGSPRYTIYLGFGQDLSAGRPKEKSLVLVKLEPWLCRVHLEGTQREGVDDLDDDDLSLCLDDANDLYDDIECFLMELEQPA
TCAATTTTGTTTTTCATACTGTGCTAG: 2.29 z-score
TTAGGTCTCCTTTTCCTGTAGTGCTAG: 1.52 z-score
TAAAACATCATTTTTCCCTCGTGCTAG: 0.809 z-score
TCATTTTTTTTTTTTTGACTGTGCTAG: 2.14 z-score
CTAGTTCTGCTTTGCCTTCAGTGCTAG: 2.74 z-score
GACGGTTTCGGTTTCGCGACGTGCTAG: 14.6 z-score
TCAAAAATGCCCTTTTGGACTGTGCTA: -0.17 z-score
GACGTACTGGGTATCGGGACGTGCTAG: -0.0559 z-score
TGGGATTTTGTCCTCCCCTCGTGCTAG: 0.208 z-score
GACGATTTCAGTCCCGAGACGTGCTAG: 0.809 z-score
TTAGGACTGGGGTATCGGTTGGTGCTA: -0.54 z-score
CTCTGCTTGTATCTGGGTTCGTGCTAG: 1.18 z-score
CAATATATATATTATATATTTGTGCTA: 0.167 z-score
GACGGTTTCGGTCTGGGGACGTGCTAG: 7.73 z-score
GACGGTTACGGGACTGGGGACGTGCTA: -0.443 z-score
CCTTGTCCCCTCAGGTATGGGTGCTAG: 0.0166 z-score
GACGGTTGCCTTTCCCTGACGTGCTAG: 1.12 z-score
TTACATTTCAGTTCCGATTAGTGCTAG: 3.06 z-score
GGCGGTTTCGGTCTCGGGACGTGCTAG: 6.47 z-score

Some of these lines once more (block 3):
CACCTAGA: -0.118
GACGAAGA: 0.041
AATGGTAC: 0.165
GTGCAGAA: 0.0855
AACGCCAT: -0.00316
CCTCCATA: 0.0796
GGCGAAGA: -0.173
CCGTACGC: -0.203
